Experimental data gathered from unrelated publications.
Compare with care: the assays were run in different laboratories. “And” joins repeats or separate records; there may be more than shown.
CDK5 with p25: Cyclin-dependent kinase 5, with p25 (CDK5, Homo sapiens, UniProt Q00535)
CDK5 with p35: Cyclin-dependent kinase 5, with p35 (CDK5, Homo sapiens, UniProt Q00535)
CDK5: Cyclin-dependent kinase 5 (CDK5, Homo sapiens, UniProt Q00535)

Structure (SMILES) | target | test | system | conditions | scale | endpoint | result
CN1C[C@@H](c2c[nH]c3cc(Br)ccc23)NC[C@@H]1c1c[nH]c2cc(Br)ccc12 | CDK5 with p25 |  |  | 10 µM | reference: control | remaining activity | 101%
Cc1cc(C)nc(Nc2ccc([C@@H]3CCCN(C(=O)/C=C/c4c(C)nn(C)c4C)C3)nc2)n1 | CDK5 with p25 | enzyme activity, inhibitor, ADP detection |  | 1 µM |  | activity vs control | 99%
COCC12C(=O)NC3C4(C(OC)CC1O)C1CC5(O)C(OC)C(O)C(OC(C)=O)(C1C5OC(=O)c1ccccc1)C3(O)C(OC)C24 (stereo not drawn) | CDK5 with p25 | kinase activity, inhibitor, ProQinase kinase profiling |  | 25 µM | reference: control | remaining activity | 97% and 109%
Cc1cc(C)nc(Nc2ccc([C@@H]3CCCN(C(=O)/C=C/c4csc(C)n4)C3)nc2)n1 | CDK5 with p35 | enzyme activity, inhibitor, ADP detection |  | 1 µM |  | activity vs control | 105%
O=c1c(-c2ccc(Cl)c(CN3CCOCC3)c2)coc2cc(O)ccc12 | CDK5 with p35 | enzyme activity, inhibitor |  | 1 µM |  | remaining activity | 105%
CNC1C[S+]2CC[S+]3CC[S+](C1)[Ru-4]321([N]=C=S)[n]2c3ccc(OC)cc3c3c4c(c5cc(F)c[n+]1c5c32)C(=O)NC4=O (stereo not drawn) | CDK5 | KinomeScan |  | 0.1 µM | reference: untreated | remaining binding | 88%
O=C(Cc1ccc(OCc2ccccc2)cc1)NC1(C(=O)O)CCN(C(=O)c2ccc(-c3cccc(Cl)c3)cc2)CC1 | CDK5 with p35 | enzyme activity, inhibitor |  | 10 µM |  | activity vs control | 136%
N[C@H]1CC[C@H](Nc2nccc(-c3cccnc3Oc3ccc(NC(=O)NC4CC4)c4ccccc34)n2)CC1 | CDK5 | kinobead competition pulldown | HEK293/HCT116 lysate mixture | 10 µM, 1 h, 4 °C | lower = stronger competition | log2 LFQ intensity | 29 and 28.9 and 28.8 and 28.7
CCc1nnc(Nc2cnc([C@@H]3CCCN(C(=O)CCc4cccnc4)C3)cn2)s1 | CDK5 with p35 | enzyme activity, inhibitor, ADP detection |  | 1 µM |  | activity vs control | 102%
Nc1ncc(-c2cc(-c3cnn(CC(F)(F)F)c3)ncc2F)nc1C(=O)NC1CNCC(F)C1 (stereo not drawn) | CDK5 with p35 | enzyme activity |  | 1 µM | reference: DMSO control | remaining activity | 98.5%
Cc1cnc2nc1Nc1cccc(c1)COC/C=C/COCc1cc(ccc1OCCN1CCOCC1)N2 | CDK5 | binding |  | 0.1 µM |  | remaining binding | 100%
CC(C)=CC1OC(C)(C)C2C=C3C(=O)C(Cl)=CC(O)C3C3C(O)C4OC4C(=O)C132 (stereo not drawn) | CDK5 | cell-free assay, competition with immobilised ligand |  | 10 µM |  | remaining binding | 81%
O=C=[N][Ru-4]123([n]4c5ccc(O)cc5c5c6c(c7cc(F)c[n+]1c7c54)C(=O)NC6=O)[S+]1CC[S+]2CC[S+]3CC1 (stereo not drawn) | CDK5 with p35 | enzyme activity |  | 100 nM, human enzyme, together with: 10 µM ATP | reference: untreated | remaining activity | 98%
CNC(=O)C[C@H](Cc1ccc(C#N)cc1)NC(=O)c1cc(-c2ccc(CN[C@H](C)c3ccc(C)cc3)o2)ccc1Cl | CDK5 with p25 | enzyme activity, inhibitor |  | 1 µM |  | activity vs control | 103%
Cc1cccc(O[C@H]2CCC[C@@H](C(C)CNCc3ccncc3)C2)c1 (relative stereo) | CDK5 with p25 | enzyme activity, inhibitor |  | 1 µM |  | inhibition | 0%
Cc1nn(C)c(C)c1/C=C/C(=O)N1CCC[C@H](Cc2ccc(Nc3ccccn3)nn2)C1 | CDK5 with p25 | enzyme activity, inhibitor, ADP detection |  | 1 µM |  | activity vs control | 98%
CNC(=O)C1CCN(c2cc(C)c(F)cc2NC(=O)c2ccc(-c3cc(O)ccc3C)c(C)c2)CC1 | CDK5 | binding, competition with immobilised ligand |  | 1 µM |  | remaining binding | 100%
COc1c(Cl)cccc1Nc1c(-c2ccncc2C#C[C@@]2(C)CCCN2C(=O)/C=C/CN(C)C)[nH]c2c1C(=O)NCC2 | CDK5 | binding, competition with immobilised ligand |  | 3 µM |  | remaining binding | 95%
COc1ccc(NC(=O)Nc2ccc3c(c2)C(=O)N(C(C)CO)CC(C)C(CN(C)Cc2ccc4c(c2)OCO4)O3)cc1 (stereo not drawn) | CDK5 with p25 | kinase activity, KinaseProfiler |  | 0.03 µM, species human | reference: control | remaining activity | 97%
C=CC(=O)Nc1cccc(-c2cnc3[nH]cc(C(=O)NC(C)(C)C)c3n2)c1 | CDK5 | kinase activity |  | 0.1 µM |  | inhibition | 14% and 16%
C=CC(=O)N1CCc2ccc(-n3c(=O)ccc4cnc5ccc(-c6cnn(C)c6)cc5c43)cc21 | CDK5 | KINOMEscan |  | 1 µM | reference: DMSO control | remaining binding | 92%
